Published values pooled from the literature.
Each line is one published result; not all experiments were run side by side. ± marks the error that the study gave.

CC[C@@H](C)[C@H](NC(=O)[C@H](C)NC(=O)[C@H](CCCCN)NC(=O)[C@H](CC(C)C)NC(=O)[C@H](C)NC(=O)[C@@H](NC(=O)[C@H](Cc1c[nH]cn1)NC(=O)[C@H](CC(C)C)NC(=O)[C@@H](NC(=O)[C@@H](NC(=O)[C@H](CCCCN)NC(=O)[C@H](CCCCN)NC(=O)[C@H](C)NC(=O)[C@H](CO)NC(=O)[C@H](CCCCN)NC(=O)[C@H](Cc1ccccc1)NC(=O)[C@@H](NC(=O)[C@H](CCCCN)NC(=O)[C@H](CC(C)C)NC(=O)[C@H](Cc1ccccc1)NC(=O)[C@H](CO)NC(=O)[C@H](CCCCN)NC(=O)[C@H](Cc1c[nH]c2ccccc12)NC(=O)[C@H](CCCCN)NC(C)=O)[C@@H](C)O)[C@@H](C)O)C(C)C)[C@@H](C)O)C(=O)N[C@@H](CO)C(=O)N[C@@H](CO)C(N)=O
retention time (RP-HPLC; Zorbax 300 SB-C8 column; 65 °C): 16.3 min

CCNc1cc2[o+]c3cc(NCC)c(C)cc3c(-c3ccccc3C(=O)OCCOCC[18F])c2cc1C
tissue uptake (rat, gut; 60 min): 1.39 ± 0.58 %ID/g

CSCC[C@H](NC(=O)[C@H](CC(N)=O)NC(=O)[C@@H](N)Cc1ccccc1)C(=O)N[C@@H](CCC(N)=O)C(=O)N[C@@H](C)C(=O)N[C@@H](CCC(N)=O)C(=O)N[C@@H](CCCNC(=N)N)C(=O)N[C@@H](CCCNC(=N)N)C(=O)N[C@@H](Cc1ccccc1)C(=O)N[C@@H](Cc1ccc(O)cc1)C(=O)N[C@@H](CCC(=O)O)C(=O)N[C@@H](C)C(=O)N[C@@H](CC(C)C)C(=O)N[C@@H](Cc1c[nH]cn1)C(=O)N[C@@H](CC(=O)O)C(=O)NCC(=O)NCC(=O)NCC(=O)NCC(=O)N[C@@H](CO)C(=O)N[C@@H](C)C(=O)N[C@@H](CCC(=O)O)C(=O)N[C@@H](C)C(=O)N[C@@H](CCC(=O)O)C(=O)N[C@@H](C)C(=O)N[C@@H](CCCCN)C(=O)N[C@@H](C)C(=O)N[C@@H](CCCCN)C(=O)N[C@@H](C)C(=O)N[C@@H](CCC(=O)O)C(=O)N[C@@H](C)C(=O)N[C@@H](CCC(=O)O)C(=O)N[C@@H](C)C(=O)N[C@@H](CCCCN)C(=O)N[C@@H](C)C(=O)N[C@@H](CCCCN)C(=O)O
incorporation into fibrils (EAK peptide fibrils; overnight, 37 °C, PBS, with: EAK to compound ratio 2:1): 13%

O=C(O)CCC(NP(=O)(O)OCCC[C@@H](NC(=O)CCC(NC(=O)c1ccc([18F])cc1)C(=O)O)C(=O)O)C(=O)O (stereo partly shown)
tracer uptake (PC-3 tumour model; host not given, muscle; intravenous, 2 h, tumour-bearing): 0.17 %ID/g

CC[C@H](C)C(=O)N1CCC(NC(=O)Nc2ccc(OC(F)(F)F)c(F)c2)CC1
subjects with feeling hot TEAE (healthy volunteers; oral, 16 mg single dose): 0%

CC[C@H](C)[C@H](NC(=O)[C@H](CCCCN)NC(=O)[C@H](Cc1ccccc1)NC(=O)[C@H]1CCC[C@@H]1NC(=O)[C@@H](N)CCCCN)C(=O)N[C@@H](C)CC(=O)N[C@@H](CCCCN)C(=O)N[C@@H](CCCCN)C(=O)N[C@H]1CCC[C@@H]1C(=O)N[C@H](C(=O)N[C@@H](CCCCN)C(=O)N[C@@H](CCCNC(=N)N)C(=O)N[C@H](CC(N)=O)Cc1ccccc1)C(C)C
retention time (RP-HPLC C18; hydrophobicity): 13.33 ± 0.04 min

CSCC[C@@H]1NC(=O)[C@@H]2CSSC[C@H](NC(=O)[C@H](CO)NC(=O)[C@H](C)N)C(=O)N[C@@H](CCCNC(=N)N)C(=O)N[C@@H]([C@@H](C)O)C(=O)N3CCC[C@H]3C(=O)N[C@@H](CCCCN)C(=O)N[C@@H](CC(=O)O)C(=O)N[C@H]3CSSC[C@H](NC(=O)[C@H](CCCCN)NC(=O)[C@H](CCCNC(=N)N)NC(=O)[C@H](CC(N)=O)NC1=O)C(=O)N[C@@H](CCCCN)C(=O)N[C@H]1CSSC[C@H](NC(=O)[C@@H]4CCCN4C(=O)[C@H](CC(=O)O)NC(=O)[C@H](C)NC3=O)C(=O)N[C@@H](C)C(=O)N[C@@H](CCCCN)C(=O)N[C@@H](CCC(=O)O)C(=O)N[C@@H]([C@@H](C)O)C(=O)NCC(=O)N[C@@H](CSSC[C@@H](C(N)=O)NC(=O)[C@H](CCCNC(=N)N)NC(=O)[C@H](CC(N)=O)NC1=O)C(=O)N1CCC[C@H]1C(=O)N[C@@H](Cc1ccc(O)cc1)C(=O)NCC(=O)N[C@@H](CCCCN)C(=O)N2
Cholesterol (DA rat pristane-induced arthritis, serum; subcutaneous, 0.1 mg/kg once weekly, 21 days): 76 mg/dL

COc1cc2ccnc(Cc3ccc(O[11CH3])c(OC)c3)c2cc1OC
brain uptake (Sprague-Dawley rat, cerebellum; i.v., 5 min): 0.161 %ID/g

CN[C@](C)(C[18F])C(=O)O
tracer uptake (MDA-MB-468 tumour model; host not given, heart; 30 min, tumour-bearing): 2.7 %ID/g

N=C(N)NCCC[C@@H]1NC(=O)[C@H](CCCCNC(=O)CCOCCOCCOCCOCCNC(=O)CN2CCN(CC(=O)O)CCN(CC(=O)O)CCN(CC(=O)O)CC2)NC(=O)[C@@H](Cc2ccccc2)NC(=O)[C@H](CC(=O)O)NC(=O)CNC1=O [indium-111 labelled]
tumour to tissue ratio (athymic nude mice, female, U-87 MG glioma xenograft, tumour and brain; intravenous, 0.5 h; relative to: tumour over brain): 13.8 ± 1.72

CCN(Cc1ccccc1)C(=O)CCc1nc(CN2CCN(C(=O)Cc3ccc(OC)c(OC)c3)CC2)no1
activation midpoint shift (Potassium voltage-gated channel subfamily KQT member 5 (KCNQ5, Homo sapiens, UniProt Q9NR82); opener, whole-cell patch clamp; transfected cells; 10 µM; relative to: control, towards hyperpolarisation): 24.4 mV

CCCCCCCC(=O)OC[C@H](NC(=O)[C@H](CO)NC(=O)CN)C(=O)N[C@@H](Cc1ccccc1)C(=O)N[C@@H](CC(C)C)C(=O)N[C@@H](CO)C(=O)N1CCC[C@H]1C(=O)N[C@@H](CCC(=O)O)C(=O)N[C@@H](Cc1cnc[nH]1)C(=O)N[C@@H](CCC(N)=O)C(=O)N[C@@H](CCCNC(=N)N)C(=O)N[C@H](C(=O)N[C@@H](CCC(N)=O)C(=O)N[C@@H](CCC(N)=O)C(=O)N[C@@H](CCCNC(=N)N)C(=O)N[C@@H](CCCCN)C(=O)N[C@@H](CCC(=O)O)C(=O)N[C@@H](CO)C(=O)N[C@@H](CCCCN)C(=O)N[C@@H](CCCCN)C(=O)N1CCC[C@H]1C(=O)N1CCC[C@H]1C(=O)N[C@@H](C)C(=O)N[C@@H](CCCCN)C(=O)N[C@@H](CC(C)C)C(=O)N[C@@H](CCC(N)=O)C(=O)N1CCC[C@H]1C(=O)N[C@@H](CCCNC(=N)N)C(=O)O)C(C)C
volume of distribution (human, both sexes, plasma; intravenous infusion, 5 µg/kg/h, 65 min infusion): 0.078 ± 0.022 L/kg

CC[C@H](C)[C@H](NC(=O)CNC(=O)[C@@H](NC(=O)[C@H](Cc1ccc(O)cc1)NC(=O)[C@@H](NC(=O)[C@H](CO)NC(=O)[C@@H](NC(=O)[C@H](C)NC(=O)[C@@H]1CCCN1C(=O)[C@@H](NC(=O)[C@H](Cc1ccccc1)NC(=O)[C@H](CCCCN)NC(=O)[C@H](CCC(=O)O)NC(=O)[C@H](Cc1ccc(O)cc1)NC(=O)[C@H](CC(C)C)NC(=O)[C@H](CC(=O)O)NC(=O)[C@H](CCCNC(=N)N)NC(=O)[C@H](CC(C)C)NC(=O)[C@H](CCCCN)NC(=O)[C@H](CCC(=O)O)NC(=O)[C@H](Cc1ccccc1)NC(=O)[C@@H](NC(=O)[C@H](CCC(=O)O)NC(=O)[C@H](CCCCN)NC(=O)[C@H](CC(C)C)NC(=O)[C@H](Cc1ccc(O)cc1)NC(=O)[C@@H](N)CC(=O)O)C(C)C)[C@@H](C)O)C(C)C)[C@@H](C)O)[C@@H](C)O)C(=O)N[C@@H](Cc1ccccc1)C(=O)N[C@H](C(=O)N[C@@H](CC(=O)O)C(=O)N[C@@H](CCC(N)=O)C(=O)N[C@H](C(=O)N[C@@H](CC(C)C)C(=O)N[C@@H](CO)C(=O)N[C@H](C(=O)N[C@@H](CC(C)C)C(=O)N[C@@H](CCCCN)C(=O)NCC(=O)N[C@@H](CCC(=O)O)C(=O)N[C@@H](CCC(=O)O)C(=O)O)C(C)C)C(C)C)[C@@H](C)O
terminal half-life (C57BL/6 mice, female, plasma; intravenous, dose not given): 9 h
